Assay results pooled from the literature.
Parts stem from different laboratories: compare values within a part only.

Sample 1
Target: Histone acetyltransferase KAT6A, winged helix 1, GST fusion (KAT6A, Homo sapiens, UniProt Q92794, residues 1-85)
Technique: protein binding microarray
Form: double-stranded DNA, one strand shown
Sample: in vitro
Tested at: not given
Notes: 8-mer, flanks averaged, mean of 2 arrays, mostly near background
Relative to: not given
Direction: higher = stronger binding
Target sequence (chain): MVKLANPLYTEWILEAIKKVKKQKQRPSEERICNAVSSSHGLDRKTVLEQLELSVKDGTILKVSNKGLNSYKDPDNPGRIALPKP
Strand	E-score
GCACATTA	-0.00169
CGCTATAA	0.197
ACTAAGAC	-0.0468
GGTCGTAA	-0.0159
CAGATTGC	-0.115
AGGGTATA	-0.0894
GACTTCGA	-0.12
GATTATCA	-0.107
CTAGCCTC	-0.174
CGAGTATC	0.0854
TTCGTCAA	-0.196
AACGCTCG	0.166
ATCACTAG	-0.0889
ACTAAACT	-0.0633
AGAAGTAA	-0.179
ACCTAGCT	-0.309
CCGTCACC	0.213
ACGGTCCT	-0.011
GACGTGCA	-0.134
ACTCCGGC	0.216

Sample 2
Target: PABPC1L2, full length, GST fusion (mouse, UniProt A0ABA7IW68)
Technique: RNAcompete
Form: RNA
Sample: in vitro
Tested at: 20 nM
Notes: 7-mer, probes averaged, single round
Relative to: mean of 7-mers
Direction: higher = stronger binding
Residues (chain): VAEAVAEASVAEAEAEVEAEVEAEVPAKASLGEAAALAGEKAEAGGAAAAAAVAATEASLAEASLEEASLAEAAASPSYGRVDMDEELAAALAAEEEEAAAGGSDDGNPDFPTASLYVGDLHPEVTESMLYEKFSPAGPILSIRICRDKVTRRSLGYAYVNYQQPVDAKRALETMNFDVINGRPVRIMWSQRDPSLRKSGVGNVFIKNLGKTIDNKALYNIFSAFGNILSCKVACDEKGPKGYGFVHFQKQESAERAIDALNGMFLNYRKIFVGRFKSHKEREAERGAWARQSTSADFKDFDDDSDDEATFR
Strand	7-mer Z-score
CGGCCCG	-0.277
AGCAUUG	0.0297
CAUUGAG	-0.115
CUCAUUU	-0.267
CCGCGGA	-0.338
UGGUGUU	-0.46
UCGCCGG	-0.309
UACGUGC	-0.273
ACGGAUA	0.106
GGCGUAA	0.0696
CGGUGGU	-0.103
CGAACUA	-0.0138
UUGGGGC	0.204
GAAAGUU	0.55
UGCUUUU	-0.132
CUAGGUG	-0.0482
GUGCGUU	-0.273
AGCUUCA	-0.132
GAGCGUA	-0.191
UUUGAUA	-0.17
ACAGCAU	-0.0826
GAUCAAG	0.0152
ACCUGUC	-0.269
GCGAGGC	-0.00289
CUGAGAA	0.229

Sample 3
Target: RNA binding protein fox-1 homolog 2, RRM domain, GST-SBP tag (RBFOX2, Homo sapiens, UniProt O43251-10, residues 100-194)
Technique: RNA Bind-n-Seq
Form: RNA
Sample: in vitro
Tested at: 365 nM
Notes: natural RNA segment, single round, ends assumed
Relative to: no-protein control
Direction: higher = stronger binding
Shared flanks, not repeated: GGGAGUUCUACAGUCCGACGAUC … UGGAAUUCUCGGGUGCCAA
Residues (chain): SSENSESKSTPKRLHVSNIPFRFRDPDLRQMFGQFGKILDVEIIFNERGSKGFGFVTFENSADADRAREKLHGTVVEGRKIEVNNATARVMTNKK
Strand	RBNS enrichment (R)
AGAUCCUGUCAUCAUGGGACGUCAGUGUUUUUUGUUAAAGGGGACAUACAUGGGGGCAUGUCAUGGGGAUAGAUCAAGAGGCACCAGCCAUUCUUGAGUUUGCCAGCUCC	0.995
CCUCUGCCCCGUCUCAUGAGGGGCCCGAGCAGAAGCAGGAUAGUUGCUCCGCCUCUGCUGGCACAUUUCCCCAGACCUGAGCUCCCCACCACCCCAGCUGCUCCCCUCCC	0.654
CCAAAUUUGUGGAACUAUUAAAUGUAUAAUUUGUAGACAUAAAGACUUGAUUGCUUUCCAGUUUAAUGAAAGCUUAGAUGUCCCUGCGAACCCACAAUCUCCACCAGCAG	0.287
UGGUAUUGUACUUGGGCUUUAACAUCAAUGUUGCUUUGAUGUUGUUGGAUAUAAAUAGGAAUUUUUACACAUUACUAUUGUGAAUGGUGAAUGUUCAUGUAUGACCUACU	0.329
UUUCCUUGUCCUUGAGUUUUCCUAUGAAAGAAAUAUAUUUUGUUAGAUUUGAAUUAUCGAGGCAUUUAUUGUGUACUCUUCAACAGUGCUAAAUAAAACAACAUACCAAG	0.42
CAAGAAUUUCCCAGUCCCAGGCAGGGCAGGGGAAACUAAGGGCAAGCAGGAUACAGGGCGAGGGAUGUGGCAGGUGAGGGGGCUCCCGCCUGUGCCCCUUCUCCUCACCA	1.49
CCUGCUUUUCAUACAGAACUAGCCAAUGUAAAGAUGACUCACAUGUAAAUACUUUUUUCCAUUUCACACCGUUGUAUUAUAAGUGUAUAUGGCGACUCCUUUUCCAGAAA	0.701
UAGAAUUUGGGAGAAGCAAAUAUAGGUCCUGUGUUAAACACUACACAUUUGAAACAAGCUAACCCUGGGGAGUCUAUGGUCUCUUCACUCAGGUCUCAGCUAUAAUUCUG	0.473
CAGGUCUCCUGGGAAAGGGAGAUGUCAGGAUGUUGCUCCAUCCUUUGUCUUGGAACCACCAGUCUAGUCCGUCCUGGCACAGAAGAGGAGUCAAGUAAUGGAGGUCCCAG	0.407
UUAGUGCUGGAGUAAAAGGUCAAGUCCAACACCUGCCUUAAAUUUAAAUCAUGUGAUUUAUAGUUUUUAAGUUGGCAUAAUUCAACUUAUGGUAUAACUGGGUCCCUCAA	0.435
AUAUGGUAUAUGUUUCUGAUUUUUAAUAUUUCUUUUGAGAAAUUCUGAGUUCUGAUGUAGGAGCUUUCCUGUGAUUUCUGUUUCACGUUCCUUCCUGUCACACCCUCCUU	0.712
UCUCCCCCAUCCCCUCCCGGCUUAUAGGCCCCACAGGUGCUAUUUGUUGUGCUGGCCCAGGCGUGGGGCUACCAAGCAAAGGCUUGGCAUAUACCAAAGGCCAGCUGCAU	2.96

Sample 4
Target: Prothrombin, mature alpha-thrombin (F2, Homo sapiens, UniProt P00734)
Technique: aptamer microarray, sandwich
Form: DNA with 2'F-ANA
Sample: in vitro
Tested at: 200 nM
Notes: whole 15-mer aptamer, many near background
Added: Cy3 exosite-II aptamer, 400 nM
Direction: higher = stronger binding
Strand: GGTTGGTGTGGTTGG
Modification	mean fluorescence intensity [a.u.]
2'F-ANA at 2 5 6 9 10 13 14 15	47.7
2'F-ANA at 1 2 4 7 9 10 13 14	46.3
2'F-ANA at 4 5 6 8 9 11 15	57.6
2'F-ANA at 2 4 5 6 8 11 12 13	84.8
2'F-ANA at 2 3 8 13 15	691
2'F-ANA at 10 14	122
2'F-ANA at 1 2 5 7 9 10 12 14 15	47.1
2'F-ANA at 1 2 3 4 5 6 8 9 11 12 14 15	66.7
2'F-ANA at 7 10 12 13 14	120
2'F-ANA at 3 6 7 8 10 11 13 14	375
2'F-ANA at 1 4 7 9 11 12 14	67.3
2'F-ANA at 1 9 13 15	147
2'F-ANA at 1 3 5 6 11 14 15	48.4
2'F-ANA at 1 4 6 7 8 9 14	52.7
2'F-ANA at 1 6 7 9 10 12 13 14 15	82.1
2'F-ANA at 4 6 7 8 9	333
2'F-ANA at 9 10 11 15	140
2'F-ANA at 1 3 4 5 8 13 14 15	59.3
2'F-ANA at 1 2 5 6 8 10 12 13	58.7
2'F-ANA at 1 3 4 7 8 10 13 15	59.7
2'F-ANA at 2 4 5 8 9 10 11 12 13	55.9
2'F-ANA at 3 4 5 6 10 11 13 15	52.7
2'F-ANA at 1 3 5 6 8 10 13 15	48.9
2'F-ANA at 1 3 4 5 6 7 11 12 14	46
2'F-ANA at 2 5 10 11 12 15	50.8

Sample 5
Target: Interferon regulatory factor 7, full length, phosphomimetic (IRF7, Homo sapiens, UniProt Q92985, residues 1-503, S471D/S472D/S475D/S476D/S477D/S483D/S484D/S487D)
Technique: protein-binding microarray
Form: double-stranded DNA, one strand shown
Sample: in vitro
Tested at: 2200 nM top
Notes: 60-bp whole probe
Added: salmon DNA 0.4 mg/ml
Relative to: random background probes
Direction: higher = stronger binding
Shared flanks, not repeated: GCCTAGCAC … GTCTTGATTCGCTTGACGCTGCTG
Construct (chain): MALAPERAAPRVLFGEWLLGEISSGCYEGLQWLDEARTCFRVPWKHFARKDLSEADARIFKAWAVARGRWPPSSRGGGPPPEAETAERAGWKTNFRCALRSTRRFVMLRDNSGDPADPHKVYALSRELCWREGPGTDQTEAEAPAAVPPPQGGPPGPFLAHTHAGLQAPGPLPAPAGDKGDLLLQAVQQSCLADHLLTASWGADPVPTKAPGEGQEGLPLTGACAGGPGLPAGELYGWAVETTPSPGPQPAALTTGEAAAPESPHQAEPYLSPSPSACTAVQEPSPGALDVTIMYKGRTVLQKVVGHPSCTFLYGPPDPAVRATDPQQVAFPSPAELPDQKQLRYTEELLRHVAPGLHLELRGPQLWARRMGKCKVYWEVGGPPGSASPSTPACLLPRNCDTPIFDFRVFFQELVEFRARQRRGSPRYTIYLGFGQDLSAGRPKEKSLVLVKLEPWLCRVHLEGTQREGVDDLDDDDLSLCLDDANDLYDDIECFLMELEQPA
Strand	fitted relative affinity [z-score]
TGGAGTCTCTGTTCTTTTCAGTGCTAG	1.25
TTAGGTTTCGACGCTGGGTTAGTGCTA	1.48
TGCTTTGGACCCAGGGCTAAGTGCTAG	0.0511
GACGGTATCGGACTGAGGACGTGCTAG	-0.243
GACGATCTCAGTTACGAGACGTGCTAG	0.243
GACGGACTGGACACTTGGGACGTGCTA	-0.645
TTAGATTTCGGTCTCGATTAGTGCTAG	3.23
TTAGAAGTGGGGTTTCGATTAGTGCTA	2.48
TTAGGTTTCGACAATGGGTTAGTGCTA	1.44
TTAGCACTGAGTATCGATTAGTGCTAG	-0.233
TTAGAACTGAGTTTCGATAAGTGCTAG	1.19
CTCTGCTTGTGTCTGGGATTGTGCTAG	0.826
GACGGACTAGGTCTCGGGACGTGCTAG	-0.594
ACAAATACAAGTTTCTCCTTGTGCTAG	1.4
GGCCTTGGAGGGGGTGGGTGGTGCTAG	0.258
GACGGTTTCGGTATCGTGACGTGCTAG	7.36
CCTGGCTTCATGTTGCTCTCCGTGCTA	0.645
TACGGTCTCGGTATCGGGACGTGCTAG	0.446
CATTCTCTGTTTATGTCTGGGTGCTAG	2.86
GACGCTATCAGTATCGAGACGTGCTAG	0.432
TTAGGACTGGTCTATCGGTTAGTGCTA	-0.407

Repeated from above (sample 1):
Strand	E-score
ATCACTAG	-0.0889
GATTATCA	-0.107
ACTAAGAC	-0.0468
ACTCCGGC	0.216
ACTAAACT	-0.0633
CGAGTATC	0.0854
ACGGTCCT	-0.011
CTAGCCTC	-0.174
AGGGTATA	-0.0894
ACCTAGCT	-0.309
